Assay results of several laboratories.
Parts stem from different laboratories: compare values within a part only.
Sequence of UniProt P61081 (whole entry, looked up): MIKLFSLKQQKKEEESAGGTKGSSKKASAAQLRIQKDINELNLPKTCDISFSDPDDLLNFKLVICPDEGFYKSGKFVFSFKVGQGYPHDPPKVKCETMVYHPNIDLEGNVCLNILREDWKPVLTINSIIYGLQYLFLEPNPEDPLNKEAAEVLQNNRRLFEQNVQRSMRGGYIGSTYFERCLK
Sequence of UniProt P62253 (whole entry, looked up): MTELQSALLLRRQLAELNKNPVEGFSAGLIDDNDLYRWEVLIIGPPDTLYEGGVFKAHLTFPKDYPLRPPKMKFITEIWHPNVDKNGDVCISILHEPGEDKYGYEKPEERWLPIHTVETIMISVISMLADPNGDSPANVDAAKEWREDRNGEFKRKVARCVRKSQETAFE
Sequence of UniProt Q8N2K1 (whole entry, looked up): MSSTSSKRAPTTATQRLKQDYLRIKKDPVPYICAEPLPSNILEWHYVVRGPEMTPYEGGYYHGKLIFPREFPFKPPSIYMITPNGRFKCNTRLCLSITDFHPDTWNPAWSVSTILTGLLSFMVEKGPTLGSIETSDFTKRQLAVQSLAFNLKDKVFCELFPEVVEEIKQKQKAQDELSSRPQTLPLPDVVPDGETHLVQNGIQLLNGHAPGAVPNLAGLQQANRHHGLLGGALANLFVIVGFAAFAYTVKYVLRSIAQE
Sequence of UniProt Q9Y385 (whole entry, looked up): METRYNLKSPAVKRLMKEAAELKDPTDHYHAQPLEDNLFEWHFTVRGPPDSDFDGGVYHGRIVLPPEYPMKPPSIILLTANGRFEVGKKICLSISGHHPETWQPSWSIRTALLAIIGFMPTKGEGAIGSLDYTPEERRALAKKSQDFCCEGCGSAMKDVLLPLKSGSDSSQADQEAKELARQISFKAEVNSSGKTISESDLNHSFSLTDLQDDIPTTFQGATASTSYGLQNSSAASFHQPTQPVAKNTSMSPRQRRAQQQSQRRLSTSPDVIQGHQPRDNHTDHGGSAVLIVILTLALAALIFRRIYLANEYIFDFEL
Sequence of UniProt Q712K3 (whole entry, looked up): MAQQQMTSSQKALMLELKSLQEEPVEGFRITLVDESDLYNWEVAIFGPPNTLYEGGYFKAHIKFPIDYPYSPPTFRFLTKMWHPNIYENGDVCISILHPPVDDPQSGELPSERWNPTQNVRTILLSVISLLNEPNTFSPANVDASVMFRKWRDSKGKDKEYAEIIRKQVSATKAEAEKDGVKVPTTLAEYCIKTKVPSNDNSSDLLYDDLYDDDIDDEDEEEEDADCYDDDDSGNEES
Sequence of UniProt P51668 (whole entry, looked up): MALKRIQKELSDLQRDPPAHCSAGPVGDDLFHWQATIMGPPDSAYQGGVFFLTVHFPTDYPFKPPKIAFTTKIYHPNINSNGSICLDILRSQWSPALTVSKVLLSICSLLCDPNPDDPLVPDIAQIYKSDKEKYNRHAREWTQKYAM
Sequence of UniProt Q9C0C9 (whole entry, looked up): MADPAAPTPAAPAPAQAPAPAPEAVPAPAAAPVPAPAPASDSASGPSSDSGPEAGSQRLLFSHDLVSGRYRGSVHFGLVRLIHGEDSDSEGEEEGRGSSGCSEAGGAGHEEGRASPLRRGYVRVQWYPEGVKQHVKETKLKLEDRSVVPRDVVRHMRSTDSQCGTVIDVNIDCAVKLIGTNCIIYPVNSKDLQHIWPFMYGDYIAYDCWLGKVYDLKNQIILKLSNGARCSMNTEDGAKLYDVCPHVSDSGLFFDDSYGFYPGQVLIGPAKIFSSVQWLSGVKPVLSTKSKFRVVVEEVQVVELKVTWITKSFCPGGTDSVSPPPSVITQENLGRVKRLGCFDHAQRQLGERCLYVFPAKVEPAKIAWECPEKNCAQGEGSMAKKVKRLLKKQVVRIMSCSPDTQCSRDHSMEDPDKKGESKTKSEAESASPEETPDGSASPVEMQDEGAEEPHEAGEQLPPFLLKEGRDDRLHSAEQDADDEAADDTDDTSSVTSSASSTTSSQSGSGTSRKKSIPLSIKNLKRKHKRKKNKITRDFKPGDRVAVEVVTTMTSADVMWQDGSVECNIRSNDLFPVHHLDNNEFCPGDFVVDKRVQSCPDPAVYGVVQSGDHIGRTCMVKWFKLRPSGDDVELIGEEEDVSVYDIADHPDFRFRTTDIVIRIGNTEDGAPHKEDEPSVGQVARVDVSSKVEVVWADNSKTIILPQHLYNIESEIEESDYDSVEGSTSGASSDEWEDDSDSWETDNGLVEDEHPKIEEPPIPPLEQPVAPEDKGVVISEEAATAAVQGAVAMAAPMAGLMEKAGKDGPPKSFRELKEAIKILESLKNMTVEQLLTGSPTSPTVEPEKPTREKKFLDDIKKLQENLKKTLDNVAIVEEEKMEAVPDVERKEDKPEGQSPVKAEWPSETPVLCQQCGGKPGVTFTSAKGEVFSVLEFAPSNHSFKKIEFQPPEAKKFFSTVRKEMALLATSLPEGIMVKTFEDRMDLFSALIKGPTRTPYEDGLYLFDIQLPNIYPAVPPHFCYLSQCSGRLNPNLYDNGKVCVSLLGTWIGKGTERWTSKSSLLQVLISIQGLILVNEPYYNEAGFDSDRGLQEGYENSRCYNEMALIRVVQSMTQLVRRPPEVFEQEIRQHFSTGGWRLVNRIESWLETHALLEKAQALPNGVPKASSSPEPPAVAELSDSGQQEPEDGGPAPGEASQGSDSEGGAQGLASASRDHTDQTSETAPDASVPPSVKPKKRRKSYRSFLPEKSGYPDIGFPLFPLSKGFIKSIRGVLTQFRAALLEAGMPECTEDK
Sequence of UniProt Q9H832 (whole entry, looked up): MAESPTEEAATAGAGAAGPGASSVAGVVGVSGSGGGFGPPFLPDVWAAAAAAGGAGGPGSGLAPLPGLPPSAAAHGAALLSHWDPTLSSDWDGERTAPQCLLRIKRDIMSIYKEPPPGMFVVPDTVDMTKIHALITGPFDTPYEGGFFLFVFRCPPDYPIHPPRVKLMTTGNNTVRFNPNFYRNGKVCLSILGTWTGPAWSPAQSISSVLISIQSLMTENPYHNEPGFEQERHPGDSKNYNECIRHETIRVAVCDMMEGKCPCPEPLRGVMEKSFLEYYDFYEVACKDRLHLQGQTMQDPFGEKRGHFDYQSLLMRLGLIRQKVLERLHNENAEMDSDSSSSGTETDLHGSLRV
Sequence of UniProt Q969T4 (whole entry, looked up): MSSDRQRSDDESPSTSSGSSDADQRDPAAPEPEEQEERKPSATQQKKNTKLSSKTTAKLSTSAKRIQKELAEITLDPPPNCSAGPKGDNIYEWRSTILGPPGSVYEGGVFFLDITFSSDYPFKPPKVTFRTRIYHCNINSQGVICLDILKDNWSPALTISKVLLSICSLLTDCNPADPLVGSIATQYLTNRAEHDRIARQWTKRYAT
Sequence of UniProt P68036 (whole entry, looked up): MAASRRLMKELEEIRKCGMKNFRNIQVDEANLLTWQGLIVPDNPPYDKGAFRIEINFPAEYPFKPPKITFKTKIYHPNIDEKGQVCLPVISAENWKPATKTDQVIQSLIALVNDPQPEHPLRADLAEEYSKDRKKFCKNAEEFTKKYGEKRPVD
Sequence of UniProt Q9NPD8 (whole entry, looked up): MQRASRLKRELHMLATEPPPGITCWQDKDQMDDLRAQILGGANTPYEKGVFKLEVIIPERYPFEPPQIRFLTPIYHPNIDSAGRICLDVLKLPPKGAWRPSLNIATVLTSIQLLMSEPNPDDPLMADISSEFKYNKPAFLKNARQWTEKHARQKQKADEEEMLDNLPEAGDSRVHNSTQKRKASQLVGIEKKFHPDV
Sequence of UniProt Q7Z7E8 (whole entry, looked up): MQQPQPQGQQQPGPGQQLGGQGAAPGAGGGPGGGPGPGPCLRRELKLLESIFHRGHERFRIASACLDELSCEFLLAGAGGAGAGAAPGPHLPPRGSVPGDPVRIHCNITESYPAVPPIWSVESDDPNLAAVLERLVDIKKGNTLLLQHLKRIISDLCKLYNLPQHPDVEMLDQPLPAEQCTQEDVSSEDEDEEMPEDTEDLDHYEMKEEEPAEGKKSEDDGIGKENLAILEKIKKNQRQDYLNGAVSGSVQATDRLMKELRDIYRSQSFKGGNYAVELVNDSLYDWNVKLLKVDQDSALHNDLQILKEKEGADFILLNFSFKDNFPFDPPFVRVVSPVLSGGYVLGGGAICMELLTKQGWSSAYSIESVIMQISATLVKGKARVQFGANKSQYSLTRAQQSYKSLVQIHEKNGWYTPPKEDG
Sequence of UniProt P63146 (whole entry, looked up): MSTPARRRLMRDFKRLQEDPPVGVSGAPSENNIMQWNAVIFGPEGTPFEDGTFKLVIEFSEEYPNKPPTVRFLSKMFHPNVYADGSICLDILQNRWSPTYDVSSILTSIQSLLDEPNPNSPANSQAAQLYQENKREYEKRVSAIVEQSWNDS

Study 1
Target: RING finger protein unkempt homolog, zinc fingers 1-6, SBP tag (UNK, Homo sapiens, UniProt Q9C0B0, residues 30-357)
Sequence of UniProt Q9C0B0 (30-357, looked up): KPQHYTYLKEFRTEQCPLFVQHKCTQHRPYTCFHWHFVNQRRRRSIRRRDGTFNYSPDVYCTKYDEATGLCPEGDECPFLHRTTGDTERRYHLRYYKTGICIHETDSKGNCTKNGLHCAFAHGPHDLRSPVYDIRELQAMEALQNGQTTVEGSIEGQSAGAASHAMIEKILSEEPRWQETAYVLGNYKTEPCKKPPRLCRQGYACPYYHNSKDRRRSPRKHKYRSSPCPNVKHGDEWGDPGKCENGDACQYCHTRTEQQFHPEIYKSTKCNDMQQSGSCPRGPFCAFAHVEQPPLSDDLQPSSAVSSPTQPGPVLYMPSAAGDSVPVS
Technique: RNA Bind-n-Seq
Form: RNA
Matrix: in vitro
Tested at: 100 nM
Setting: RNA with constant flanks, vertebrate orthologous sites, ends assumed
Baseline: input RNA pool
Direction: higher = stronger binding
Shared flanks, not repeated: GGGAGUUCUACAGUCCGACGAUC … CAACAGAGGAUUGAGCAUCA
Oligonucleotide	bound/input enrichment
AUUUAAAAUGUAGUUAGUUAUAUUUAAUGACCUCAUUCCUAAGUUCCUUUUUCAUUCAUGUAGCUUUCAUUUGUUAUUGCUGUUUGAAUAAUAUGAUUAAAUAGAAGGUUUGUGCCAGUA	0.492 ratio
CGGCUGAUUCGCUCAUCGGGAGAGCUGCACACAUAGCUGUUCUUGAUUCAGAAAUAUUUUUAGAGAAGUUUUUUCUGGUUGCUGCCCUCAAAUAUUUUCAGUAGAACAGAAGCAUCAUUA	0.565 ratio
UUGUAGGUUUCCAGAGUAGAUUUAGUCAUCUUCAUGGAAUGCCAGCAAACCAGAAUGCAUUGGUAGGUGCUUUUAUUACUGUUGGCUAAUGUGUAGAGGUGUUCGGGUUUGCUUUUUGUU	0.738 ratio
UGCAUUAUUUGACCAGAGUUGAAGUGACAGAGUUUGAAGAUAUCAAAUCAGGUUACAGAAUAGAUUUUGUAAGUCUCCCUCCAUUUUUACCGCCGGGGGGGUCUCACCCUACGCUUCGGU	0.231 ratio
UUAGGAGUUUGGUUUGAGUGACAGCCCUUGAGAAGGUCACACAGCGAGCUUCCUUCUGUCUAGUUUACAGACAAUGUAAUAGCAAAGAUCUUGUGCCGCAAUACUGUUUUUACAUUCCCA	0.412 ratio
AAGGUUUUUUUUUUAAUUUAAUUUUUUUUCCUUUUGGGGGUAAAAGUUUGCUCUAUCAAAUAGUGAUCGUAAGCAAUUGAUCUGUUUUGGUUGUUGCUAUAGUGACAUGCAGUUCUAUAU	0.683 ratio
UCUAGGUGGGGGUAACCAUUAACAUAUUUAAAUAAAGAAAAGAAGUGCUGAAAAUCAUGUUAGUCCUAAGUUUAGUUAGAGAAUUUACAUAAGCCUCUUUUAGGUAAUUCUAAAAUUGAA	1.72 ratio
GUGCUCUUGUACAGCCAUUAGGUUCCUCCUCUACUUCUCCCCAGAAGGAACAAAUCUAAAAUAGAUUCCUACACAUCUGACUCUGCUGUUCUGGUUUUGUUUUCUAUCAUUAUUACAUAU	1.44 ratio
UAUUGUAUGUAGAGAAAAAAUUUUCCUUGACCCCAUUGUGAAAUUCCCUAGCAAUUUAUUUAGAAUCUUCAUUUUUCUCAUUCAAGCUCACUGUAUUAGUUAUUUUUAGCUCAUAAUUAA	3.45 ratio
CCCUCGGGGCAGGGUGGGCCUGCCUCAGAGCGGCCAGCCAGCCUGUCAGCCAGACGGUUUUAGCUCCGUUUUUUUAAACAGUGCCCUUAUGAUUGUCCUGUACAUUCGCGGAGAUUUGGA	0.342 ratio
UGUAUGUAGAGAAAAAUUUUCAUUGACCCCCCCCAUUGUGAAAUUCCCUAGCAAUUUAUUUAGAAUCUUAAAUUUUCUAAUUAAAGCUCAUUGUAUUAGUCAUUUUUAGCAUAAUUAAAA	2.77 ratio

Study 2
Target: Histone acetyltransferase KAT6A, both winged helices, GST fusion (KAT6A, Homo sapiens, UniProt Q92794, residues 1-181)
Technique: protein binding microarray
Form: double-stranded DNA, one strand shown
Matrix: in vitro
Tested at: not given
Setting: 8-mer, flanks averaged, mean of 2 arrays, mostly near background
Baseline: not given
Direction: higher = stronger binding
Target sequence (chain): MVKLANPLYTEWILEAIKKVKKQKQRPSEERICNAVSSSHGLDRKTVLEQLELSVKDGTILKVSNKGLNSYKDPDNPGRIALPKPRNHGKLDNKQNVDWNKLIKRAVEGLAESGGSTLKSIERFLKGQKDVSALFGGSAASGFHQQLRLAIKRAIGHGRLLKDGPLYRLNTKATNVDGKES
Oligonucleotide	E-score
ATCAGCAT	-0.16
CGGTTCCA	0.111
CGGGGGGC	0.172
CAACAGTG	-0.0492
ATAGTCAG	-0.165
AATTCGGT	0.1
AAGCCGGA	0.148
ACCGCGCC	0.332
ACGGGGCG	0.17
GGGCCAAA	0.108
CTCCTTTC	-0.0212
ACCATCAG	-0.0407
CCGAACAG	0.00647
ACGCAGAA	0.131
GACGACAA	-0.075
AGGGGTAA	-0.309
CAACTTTA	-0.116
ACATTATA	-0.0972
CCCTGCAA	-0.0718
AGTGGATA	-0.127

Study 3
Target: Interferon regulatory factor 7, full length, phosphomimetic (IRF7, Homo sapiens, UniProt Q92985, residues 1-503, S471D/S472D/S475D/S476D/S477D/S483D/S484D/S487D)
Technique: protein-binding microarray
Form: double-stranded DNA, one strand shown
Matrix: in vitro
Tested at: 2200 nM top
Setting: 60-bp whole probe
Added: salmon DNA 0.4 mg/ml
Baseline: random background probes
Direction: higher = stronger binding
Shared flanks, not repeated: GCCTAGCAC … GTCTTGATTCGCTTGACGCTGCTG
Construct (chain): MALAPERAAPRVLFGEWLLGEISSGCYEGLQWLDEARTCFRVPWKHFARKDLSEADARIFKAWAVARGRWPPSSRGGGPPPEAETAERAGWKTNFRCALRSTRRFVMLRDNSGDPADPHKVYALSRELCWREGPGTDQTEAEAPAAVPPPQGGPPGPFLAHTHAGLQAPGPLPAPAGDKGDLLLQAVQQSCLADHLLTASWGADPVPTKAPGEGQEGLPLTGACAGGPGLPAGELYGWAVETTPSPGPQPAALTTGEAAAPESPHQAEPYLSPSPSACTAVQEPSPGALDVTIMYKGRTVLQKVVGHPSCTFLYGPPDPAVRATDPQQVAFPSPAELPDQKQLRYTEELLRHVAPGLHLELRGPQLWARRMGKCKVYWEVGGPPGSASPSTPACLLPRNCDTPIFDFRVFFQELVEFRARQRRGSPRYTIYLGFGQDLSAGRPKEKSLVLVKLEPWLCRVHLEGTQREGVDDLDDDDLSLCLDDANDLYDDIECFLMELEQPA
Oligonucleotide	fitted relative affinity [z-score]
TTAGAACTGAGTTTCGCTTAGTGCTAG	3.33
TCAGATATCAGTTTCGATTAGTGCTAG	5.64
CACTCTCTGCTTGTGTCTGGGTGCTAG	1.71
GGCCCTTTGCTTTCCTGATGGTGCTAG	1.01
TCTTGTCTGGATGTGCCTTAGTGCTAG	0.932
GACGGCATCCTTATCCTGACGTGCTAG	0.453
TTACGACTGGGTCTCGGTTAGTGCTAG	0.825
TCAGGTTTCCTTTTCCTTTAGTGCTAG	7.34
TTAGATATCGACACTGGGTTAGTGCTA	-0.17
GACGATATCAGTTTCGAGACGTGCTAG	3.76
TTAGTTATCGGGTATCGATTAGTGCTA	1.04
TTGGGTCTCGGTATCGGTTAGTGCTAG	0.899
GACGCTTCCCTTTTCCTGACGTGCTAG	3.05
TCATAAGCAAAAATGATACTGTGCTAG	-0.647
GACGGACTGGGTTTCTGGACGTGCTAG	-0.0292
TCACTTCTGTATTCATGACTGTGCTAG	2.17
GACGGTTCTGGTTTCGGGACGTGCTAG	3.78
TCAGATTTCAGACTGGATTAGTGCTAG	0.364
AAATCATTTTCTCTGTTCTAGTGCTAG	1.41
GACGGTATCGGGTATCGGCACGTGCTA	-0.111

Study 4
Sequence: MDDQGCPRCKTTKYRNPSLKLMVNVCGHTLCESCVDLLFVRGAGNCPECGTPLRKSNFRV (MNAT1 RING domain (UniProt P51948))
Technique: yeast two-hybrid
Matrix: yeast
Setting: mostly zero background
Baseline: not given
Direction: higher = stronger interaction
target	lacZ reporter activity
UBE2Q1 UBC core domain (UniProt Q7Z7E8)	0
UBE2D1 UBC core domain (UniProt P51668)	0
UBE2J2 UBC core domain (UniProt Q8N2K1)	0
UBE2Z UBC core domain (UniProt Q9H832)	0
UBE2I UBC core domain (UniProt P63279)	0
UBE2L3 UBC core domain (UniProt P68036)	0
UBE2M UBC core domain (UniProt P61081)	0
UBE2G1 UBC core domain (UniProt P62253)	0
UBE2B UBC core domain (UniProt P63146)	0
UBE2O UBC core domain (UniProt Q9C0C9)	0
UBE2R2 UBC core domain (UniProt Q712K3)	0
UBE2T UBC core domain (UniProt Q9NPD8)	0
UBE2E3 UBC core domain (UniProt Q969T4)	0
BIRC6 UBC core domain (UniProt Q9NR09)	0
UBE2J1 UBC core domain (UniProt Q9Y385)	0

Study 5
Target: Prothrombin, mature alpha-thrombin (F2, Homo sapiens, UniProt P00734)
Technique: aptamer microarray, sandwich
Form: DNA with 2'F-ANA
Matrix: in vitro
Tested at: 200 nM
Setting: whole 15-mer aptamer, many near background
Added: Cy3 exosite-II aptamer, 400 nM
Direction: higher = stronger binding
Oligonucleotide: GGTTGGTGTGGTTGG
Modification	mean fluorescence intensity [a.u.]
2'F-ANA at 4 7 8 9 11 13 14 15	102
2'F-ANA at 1 6 7 8 9 10	58.8
2'F-ANA at 2 3 6 7 9 10 11 13 14 15	219
2'F-ANA at 5 7 10 11 14	43.6
2'F-ANA at 1 2 3 4 6 8 10 11 14 15	52.5
2'F-ANA at 2 3 8 9 12 14 15	500
2'F-ANA at 1 3 6 7 8 12	630
2'F-ANA at 1 2 4 6 7 8 10 12 13 14 15	46.2
2'F-ANA at 2 3 4 9 10 11 14 15	170
2'F-ANA at 1 2 4 7 8 9 10 14	50.8
2'F-ANA at 1 2 3 5 6 11 15	58.6
2'F-ANA at 1 3 7 11 13 14 15	78.6
2'F-ANA at 6 8 9 11 12 13 14	194
2'F-ANA at 1 2 4 6 8 9 11 15	102
2'F-ANA at 3 8 9 11 12 13 14	791
2'F-ANA at 2 8 9 10	160
2'F-ANA at 1 2 3 6 9 12 15	414
2'F-ANA at 1 3 4 5 8 9 11 15	67.4
2'F-ANA at 4 9 13	209
